Results pooled from the literature.
A part holds a random share of what one study measured.
Sequence of UniProt P80192 (whole entry, looked up): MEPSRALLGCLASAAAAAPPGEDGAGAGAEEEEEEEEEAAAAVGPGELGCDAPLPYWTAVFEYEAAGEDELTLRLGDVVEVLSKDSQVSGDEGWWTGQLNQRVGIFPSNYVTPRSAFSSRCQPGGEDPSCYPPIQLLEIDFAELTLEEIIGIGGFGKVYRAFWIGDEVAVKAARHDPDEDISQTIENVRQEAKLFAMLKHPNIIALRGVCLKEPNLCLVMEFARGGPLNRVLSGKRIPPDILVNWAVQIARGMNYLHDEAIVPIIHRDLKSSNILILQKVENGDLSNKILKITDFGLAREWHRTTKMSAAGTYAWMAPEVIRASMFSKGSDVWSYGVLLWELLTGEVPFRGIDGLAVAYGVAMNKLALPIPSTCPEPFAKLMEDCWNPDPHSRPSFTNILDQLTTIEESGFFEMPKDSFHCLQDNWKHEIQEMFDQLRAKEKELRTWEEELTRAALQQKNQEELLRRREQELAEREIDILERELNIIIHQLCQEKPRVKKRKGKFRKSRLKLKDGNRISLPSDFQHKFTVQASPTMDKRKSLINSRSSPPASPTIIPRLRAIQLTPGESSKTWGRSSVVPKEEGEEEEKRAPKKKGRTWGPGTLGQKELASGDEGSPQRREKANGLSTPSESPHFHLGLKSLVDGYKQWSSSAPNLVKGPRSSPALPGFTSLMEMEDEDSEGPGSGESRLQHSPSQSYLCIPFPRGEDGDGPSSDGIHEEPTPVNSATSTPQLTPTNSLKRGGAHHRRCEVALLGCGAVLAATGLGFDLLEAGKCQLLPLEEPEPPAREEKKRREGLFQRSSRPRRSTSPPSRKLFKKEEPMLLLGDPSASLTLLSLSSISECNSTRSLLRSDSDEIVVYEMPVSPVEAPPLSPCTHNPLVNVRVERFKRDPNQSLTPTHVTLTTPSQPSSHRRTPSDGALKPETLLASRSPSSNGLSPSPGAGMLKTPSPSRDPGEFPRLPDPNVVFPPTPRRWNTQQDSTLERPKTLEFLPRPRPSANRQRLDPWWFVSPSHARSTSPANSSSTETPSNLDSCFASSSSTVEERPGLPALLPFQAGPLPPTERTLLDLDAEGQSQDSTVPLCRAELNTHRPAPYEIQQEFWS

Series 1
Target: Phosphate system positive regulatory protein PHO4, full length, GST-tagged (PHO4, Saccharomyces cerevisiae, UniProt P07270, residues 1-312)
Method: competition protein-binding microarray
Molecule type: double-stranded DNA, one strand shown
Medium: in vitro
Concentration: 2 µM
Notes: whole 60-bp probe, lowest competitor level
With: Cbf1 competitor, 0.05 µM
Reading: higher = stronger binding
Endpoint: fluorescence intensity
Constant ends, left off below: … GTCTTGATTCGCTTGACGCTGCTG
Residues (chain): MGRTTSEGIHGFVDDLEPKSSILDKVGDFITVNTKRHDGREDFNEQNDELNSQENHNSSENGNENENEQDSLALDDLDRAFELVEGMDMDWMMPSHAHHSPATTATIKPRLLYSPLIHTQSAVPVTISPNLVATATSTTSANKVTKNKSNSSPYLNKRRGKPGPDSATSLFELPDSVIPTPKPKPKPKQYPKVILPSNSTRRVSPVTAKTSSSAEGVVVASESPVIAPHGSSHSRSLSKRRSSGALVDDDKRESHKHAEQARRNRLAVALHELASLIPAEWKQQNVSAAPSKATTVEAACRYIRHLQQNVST
CGGGGTTAAGTTTGGACCGTGGGTGGCTTGCAGCAG: 8670 a.u.
GTCTTGTCTCATTGTCACATTACTTTCCCCACTTCA: 4780 a.u.
TTCAGCACAACCGACCACGTGAGACGAGGGTCGAAG: 16400 a.u.
TTTTTCTCTTGCCGTCACATGATCGCAAAATGGCAA: 7420 a.u.
CCGCTGTTTTATTAGCACGTGACGGATTGAAACGAC: 17500 a.u.
ACCCGGGTGCTTCGTCACGTGCAAATCAAATATGAA: 16000 a.u.
GCACTGATGCAGCCGTGCGTGTAACTAAAACATTTA: 7190 a.u.
CTGCGCATACGAATACACATGAGTGCCATAAAACAA: 7050 a.u.

Series 2
Target: Histone acetyltransferase KAT6A, winged helix 2, GST fusion (KAT6A, Homo sapiens, UniProt Q92794, residues 85-181)
Method: protein binding microarray
Molecule type: double-stranded DNA, one strand shown
Medium: in vitro
Concentration: not given
Notes: 8-mer, flanks averaged, mean of 2 arrays, mostly near background
Baseline: not given
Reading: higher = stronger binding
Endpoint: E-score
Construct (chain): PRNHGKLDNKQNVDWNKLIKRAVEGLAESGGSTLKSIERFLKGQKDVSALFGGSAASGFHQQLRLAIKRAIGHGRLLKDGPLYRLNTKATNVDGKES
CCCAGCGC: 0.148
AACGCTGC: -0.0254
AAACCTTA: 0.0168
GTATCCAC: 0.0612
AAGGTTAC: 0.0391
GCCGCAGA: 0.227
AAGCTGTA: 0.0111
ACACTTGA: 0.00013

Single results of other studies
Cn1c(=O)c2[nH]cnc2n(C)c1=O
activity class (Sarcocystis neurona; parasite activity; 10 µM, 96 h): inactive

Cc1cncc2cccc(S(=O)(=O)N3CCCN(C(=O)CN)C[C@@H]3C)c12
remaining activity (MAP3K9 (Homo sapiens, UniProt P80192); enzyme activity, inhibitor; 0.5 µM; baseline: control): 94.4%

Excerpt of the above (series 2):
GCCGCAGA: 0.227
GTATCCAC: 0.0612
